Results collected from several papers.
Each line is one published result; not all experiments were run side by side. ± marks the error that the study gave.
B1: enzyme K184A (Streptomyces parvus, UniProt A0A7K3RVR3); chain MYVPEQYRPRDASWTLELIRSNPLALLVTNGPQHPWATHVPVLFAEEPDGPEGPDGLDATGDDLVGRRLLGHLNLMNPHWEALAGAGHALLVFQGPGSYVSPTVYETAPAAPTWDFTSVHVHGALRLIDDPDDLRKIVQATVRAYEREVGTDWDMSESLEYFERLLPGVRGFEIKIESVDSMFALSQEQLPETVTKVIDSFRRSDGGRRQELATMIERAASD
B2: enzyme Y161A (Streptomyces parvus, UniProt A0A7K3RVR3); chain MYVPEQYRPRDASWTLELIRSNPLALLVTNGPQHPWATHVPVLFAEEPDGPEGPDGLDATGDDLVGRRLLGHLNLMNPHWEALAGAGHALLVFQGPGSYVSPTVYETAPAAPTWDFTSVHVHGALRLIDDPDDLRKIVQATVRAYEREVGTDWDMSESLEAFERLLPGVRGFEIKIESVDSMFKLSQEQLPETVTKVIDSFRRSDGGRRQELATMIERAASD
UniProt Q15418, sequence (whole entry, looked up): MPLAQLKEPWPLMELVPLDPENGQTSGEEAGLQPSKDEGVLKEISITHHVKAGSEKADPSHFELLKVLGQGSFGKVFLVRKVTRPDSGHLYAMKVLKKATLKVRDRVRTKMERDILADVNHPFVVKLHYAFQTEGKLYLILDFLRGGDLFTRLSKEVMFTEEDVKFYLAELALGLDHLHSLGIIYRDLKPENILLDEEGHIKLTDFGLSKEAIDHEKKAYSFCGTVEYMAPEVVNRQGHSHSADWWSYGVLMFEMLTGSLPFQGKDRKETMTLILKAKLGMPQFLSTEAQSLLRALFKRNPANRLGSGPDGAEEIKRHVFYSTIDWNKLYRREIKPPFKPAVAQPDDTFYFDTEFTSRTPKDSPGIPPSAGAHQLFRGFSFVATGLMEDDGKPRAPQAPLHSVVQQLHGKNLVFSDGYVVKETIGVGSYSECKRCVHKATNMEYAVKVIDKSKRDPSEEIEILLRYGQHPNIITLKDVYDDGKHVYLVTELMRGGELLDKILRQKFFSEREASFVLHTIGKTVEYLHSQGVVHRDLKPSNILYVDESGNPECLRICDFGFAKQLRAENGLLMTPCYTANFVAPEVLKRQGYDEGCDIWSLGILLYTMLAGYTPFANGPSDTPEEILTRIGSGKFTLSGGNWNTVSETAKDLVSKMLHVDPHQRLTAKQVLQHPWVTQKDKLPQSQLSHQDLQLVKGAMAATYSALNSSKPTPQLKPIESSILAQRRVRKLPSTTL

| Molecule | tested on | assay | test system | setting | scale | measurement | value |
| --- | --- | --- | --- | --- | --- | --- | --- |
| B1 (enzyme K184A) | N[C@@H](CCCNO)C(=O)O | steady-state kinetics |  | pH 8, 25 °C, added: heme |  | kcat | 0.0497 s⁻¹ |
| CC(C)(C)C(=O)OCOP(=O)(OCOC(=O)C(C)(C)C)C1CCCN(O)C1=O (stereo not shown) | HT-29 |  |  |  |  | log GI50 | -6.47 log M |
| COc1ccccc1-c1n[nH]c2nc(NC3CCN(C(=O)Cc4ccc(F)cc4F)CC3)ncc12 |  | bead binding, competition bead pull-down, measured: LINJ.36.6760 | Leishmania donovani extract | 10 µM | baseline: vehicle | relative abundance | 1.1 |
| CC[C@H](C)[C@@H]([C@@H](CC(=O)N1CCC[C@H]1[C@H](OC)[C@@H](C)C(=O)N[C@H](C)[C@@H](O)c1ccccc1)OC)N(C)C(=O)[C@@H](NC(=O)[C@H](C(C)C)N(C)C(=O)OCc1ccc(NC(=O)[C@H](CCCNC(N)=O)NC(=O)[C@@H](NC(=O)CCCCCN2C(=O)CC(SC[C@H](NC(=O)[C@H](CC(=O)O)NC(=O)[C@H](Cc3ccc(O)cc3)NC(=O)[C@H](Cc3c[nH]c4ccccc34)NC(=O)[C@@H](N)CCCNC(=N)N)C(=O)O)C2=O)C(C)C)cc1)C(C)C (stereo partly shown) |  |  | PBS |  |  | half-life | 1.75 ± 0.09 h |
| CC[C@H](C)[C@H](NC(=O)[C@H](CO)NC(=O)[C@H](Cc1ccc(O)cc1)NC(=O)[C@H](Cc1ccc(O)cc1)NC(=O)[C@H](CC(N)=O)NC(=O)CNC(=O)[C@H](CO)NC(=O)[C@H](Cc1ccc(O)cc1)NC(=O)[C@H](CO)NC(=O)[C@H](CO)NC(=O)[C@H](CC(N)=O)NC(=O)COCCOCCNC(=O)CN1CCN(CC(=O)O)CCN(CC(=O)O)CCN(CC(=O)O)CC1)C(=O)N[C@@H](CC(C)C)C(N)=O [copper-64 labelled] |  | dynamic PET | KPC mouse, pancreatic cancer model, tumor | intravenous, 22.5 min, 49 days after tamoxifen |  | tumour uptake | 7.05 %ID/mL |
| CC[C@H](C)[C@H](NC(=O)[C@H](CCC(N)=O)NC(=O)[C@H](Cc1c[nH]cn1)NC(=O)[C@@H](NC(=O)[C@H](Cc1c[nH]c2ccccc12)NC(=O)[C@H](CO)NC(=O)[C@H](CCC(N)=O)NC(=O)[C@@H]1CCCN1C(=O)[C@H](Cc1c[nH]cn1)NC(=O)[C@@H](NC(=O)[C@H](CCCNC(=N)N)NC(=O)[C@H](CC(C)C)NC(=O)[C@H](Cc1ccc(O)cc1)NC(=O)[C@H](CCCNC(=N)N)NC(=O)[C@@H](NC(=O)[C@H]1CC[C@H](CN)CC1)[C@@H](C)O)[C@@H](C)CC)C(C)C)C(=O)O | rat cortical neurons | MTT |  | 1.0 mg/ml, 24 h, 37 °C |  | viability | 5 to 10% |
| CCCC[C@H](NC(=O)CN1CCC(NC(=O)CN2CCN(CC(N)=O)CCN(CC(N)=O)CCN(CC(N)=O)CC2)CC1)C(=O)N[C@H]1CC(=O)NCCCC[C@@H](C(N)=O)NC(=O)[C@H](Cc2c[nH]c3ccccc23)NC(=O)[C@H](CCCNC(=N)N)NC(=O)[C@@H](Cc2ccccc2)NC(=O)[C@H](Cc2c[nH]cn2)NC1=O [lead-203 labelled] |  |  | male C57BL/6J mice B16-F10 tumour, kidneys | intravenous, 20 pmol, 2 h |  | tissue uptake | 13.9 ± 2.84 %ID/g |
| N=C(N)NCCC[C@@H]1NC(=O)[C@H](CCCCNC(=O)CCC(NC(=S)Nc2ccc(CC3CN(CC(=O)O)CCN(CC(=O)O)CCN(CC(=O)O)CCN3CC(=O)O)cc2)C(=O)NCCCC[C@@H]2NC(=O)[C@@H](Cc3ccc(O)cc3)NC(=O)[C@H](CC(=O)O)NC(=O)CNC(=O)[C@H](CCCNC(=N)N)NC2=O)NC(=O)[C@@H](Cc2ccc(O)cc2)NC(=O)[C@H](CC(=O)O)NC(=O)CNC1=O (stereo partly shown) [scandium-44 labelled] |  | ex vivo γ-counting | female athymic nude mice, U-87 MG xenograft, brain | intravenous, 4 h |  | tissue uptake | 0.03 ± 0.01 %ID/g |
| CN(C)[C@H]1C[C@@]23CC[C@@]4(O2)C(=CC[C@]2(C)[C@@H](c5ccc6ccncc6c5)CC[C@H]24)C=C3[C@@H](O)[C@@H]1O | Ribosomal protein S6 kinase alpha-1, kinase domain 2 (RPS6KA1, Homo sapiens, UniProt Q15418) | ATP probe labelling, inhibitor, KiNativ profiling |  | 1 µM |  | inhibition | -9.5% |
| CCCCCCCCCCCCCCC(=O)N[C@@H](CCCCNC(=O)CN1CCN(CC(=O)O)CCN(CC(=O)O)CCN(CC(=O)O)CC1)C(=O)NCCCC[C@@H]1NC(=O)[C@@H](Cc2ccccc2)NC(=O)[C@H](CC(=O)O)NC(=O)CNC(=O)[C@H](CCCNC(=N)N)NC1=O [indium-111 labelled] |  |  | female BALB/c nude mice, U-87 MG xenograft, blood | intravenous, dose not given, 4 h |  | blood radioactivity | 5.8 ± 0.44 %ID/g |
| B2 (enzyme Y161A) | N[C@@H](CCCNO)C(=O)O | steady-state kinetics |  | pH 8, 25 °C, added: heme |  | kcat | 0.17 s⁻¹ |
| CC(C)C[C@H](NC(=O)[C@@H]1CCCN1C(=O)[C@H](CCCCN)NC(=O)[C@@H](N)CO)C(=O)N1CCC[C@H]1C(=O)N[C@@H](CCC(=O)O)C(=O)N[C@H](C(=O)N[C@H](C(=O)N[C@@H](CC(=O)O)C(=O)N[C@@H](CCC(=O)O)C(=O)N[C@@H](Cc1ccc(O)cc1)C(=O)NCC(=O)NCCOCCOCCOCCOCCC(=O)N[C@@H](CCCCNC(=O)CC[C@H](C(=O)O)N1CCN(CC(=O)O)CCN(CC(=O)O)CC1)C(=O)N1CCN(CCCN(C)c2ccc3nccc(C(=O)NCC(=O)N4CC(F)(F)C[C@H]4C#N)c3c2)CC1)[C@@H](C)O)C(C)C [copper-64 labelled] |  | PET | NMRI nude mouse, HT-1080 hFAP xenograft, tumour | intravenous, maximum tumour uptake |  | SUVmean | 3.4 SUV |
| O=C1NC2(CC2)COc2ncc(F)cc2[C@H]2COCCN2c2ccn3ncc1c3n2 |  |  | Sprague-Dawley rat, female, serum | oral, 10 mg/kg/day, end of treatment, 4-week subacute toxicity |  | serum hepatic lipase activity | 3.8 ± 0.6 U/L |

Some of these lines once more:
| Molecule | tested on | assay | test system | setting | scale | measurement | value |
| --- | --- | --- | --- | --- | --- | --- | --- |
| CN(C)[C@H]1C[C@@]23CC[C@@]4(O2)C(=CC[C@]2(C)[C@@H](c5ccc6ccncc6c5)CC[C@H]24)C=C3[C@@H](O)[C@@H]1O | Ribosomal protein S6 kinase alpha-1, kinase domain 2 (RPS6KA1, Homo sapiens, UniProt Q15418) | ATP probe labelling, inhibitor, KiNativ profiling |  | 1 µM |  | inhibition | -9.5% |
| CCCCCCCCCCCCCCC(=O)N[C@@H](CCCCNC(=O)CN1CCN(CC(=O)O)CCN(CC(=O)O)CCN(CC(=O)O)CC1)C(=O)NCCCC[C@@H]1NC(=O)[C@@H](Cc2ccccc2)NC(=O)[C@H](CC(=O)O)NC(=O)CNC(=O)[C@H](CCCNC(=N)N)NC1=O [indium-111 labelled] |  |  | female BALB/c nude mice, U-87 MG xenograft, blood | intravenous, dose not given, 4 h |  | blood radioactivity | 5.8 ± 0.44 %ID/g |
